# Published values collected from several papers.
# Protocols differ between the studies behind these lines. Several values in a cell are separate wells, animals, samples, runs or records.
# Organism: Escherichia coli
# B1: chain MTPELNWRHEFGEIRVTFSIFNRFWLNWMDRSDRIIMIAQMHYTVAVVGSEAGRSLFAPPAY
Substance,assay,test system,conditions,how to read,endpoint,value
MTPELNWRHEFGEIR,bacterial growth,"peptide, DH5α",concentration not given,relative to: with over without arabinose induction,log fold change,4.24
polymyxin B,"XTT, preformed biofilm",ATCC BAA-2452,"2 × MIC, 24 h",,biofilm mass reduction,65%
colistin,,clinical isolate RKI 1023/14,,,MIC,≤ 0.5 µg/mL
gentamicin,time-kill,,"1 x MIC, 90 min",,viable count,0.3 log CFU/mL
Polymyxin B,,CGMCC 1.9,"concentration not given, 18 h, 37 °C",,inhibition zone diameter,14 mm
MTPELNWRHEFGEIRVTFSI,bacterial growth,"peptide, DH5α","concentration not given, 37 °C",relative to: with over without arabinose induction,fold change,24.9
Polymyxin B,,ATCC 25922,"concentration not given, together with: MgCl2 1 mM",relative to: no added salt,MIC fold change,2 fold
colistin,checkerboard,tetracycline-resistant (pBR322),"0.03125 µM, together with: tetracycline",,tetracycline MIC,225 µM
colistin,,MG1655,,,MIC,0.25 µg/mL
colistin,,"ATCC 25922, female ICR mice, subcutaneous infection, infected skin",dose not given,,bacterial load,8.44 log CFU/g and 7.86 log CFU/g and 7.79 log CFU/g and 8.57 log CFU/g and 7.81 log CFU/g
B1,bacterial growth,DH5α,"concentration not given, 37 °C",relative to: with over without arabinose induction,fold change,13.7
Polymyxin B,,ATCC 25922,"250 µg per disc, 24 h, 37 °C",,inhibition zone diameter,18 mm
Triton X-100,"potentiator, checkerboard",tet efflux pump expressing,"1700 µM, together with: tetracycline",,FIC index,1
Polymyxin B,,ATCC 25922,,relative to: 5% CO2 over ambient air,fold MIC shift,0.5
gentamicin,,,"concentration not given, 24 h, 37 °C",,inhibition zone diameter,12 mm
